Assay results of several laboratories.
Protocols differ between the studies behind these lines.
Chain of UniProt Q15303 (whole entry, looked up): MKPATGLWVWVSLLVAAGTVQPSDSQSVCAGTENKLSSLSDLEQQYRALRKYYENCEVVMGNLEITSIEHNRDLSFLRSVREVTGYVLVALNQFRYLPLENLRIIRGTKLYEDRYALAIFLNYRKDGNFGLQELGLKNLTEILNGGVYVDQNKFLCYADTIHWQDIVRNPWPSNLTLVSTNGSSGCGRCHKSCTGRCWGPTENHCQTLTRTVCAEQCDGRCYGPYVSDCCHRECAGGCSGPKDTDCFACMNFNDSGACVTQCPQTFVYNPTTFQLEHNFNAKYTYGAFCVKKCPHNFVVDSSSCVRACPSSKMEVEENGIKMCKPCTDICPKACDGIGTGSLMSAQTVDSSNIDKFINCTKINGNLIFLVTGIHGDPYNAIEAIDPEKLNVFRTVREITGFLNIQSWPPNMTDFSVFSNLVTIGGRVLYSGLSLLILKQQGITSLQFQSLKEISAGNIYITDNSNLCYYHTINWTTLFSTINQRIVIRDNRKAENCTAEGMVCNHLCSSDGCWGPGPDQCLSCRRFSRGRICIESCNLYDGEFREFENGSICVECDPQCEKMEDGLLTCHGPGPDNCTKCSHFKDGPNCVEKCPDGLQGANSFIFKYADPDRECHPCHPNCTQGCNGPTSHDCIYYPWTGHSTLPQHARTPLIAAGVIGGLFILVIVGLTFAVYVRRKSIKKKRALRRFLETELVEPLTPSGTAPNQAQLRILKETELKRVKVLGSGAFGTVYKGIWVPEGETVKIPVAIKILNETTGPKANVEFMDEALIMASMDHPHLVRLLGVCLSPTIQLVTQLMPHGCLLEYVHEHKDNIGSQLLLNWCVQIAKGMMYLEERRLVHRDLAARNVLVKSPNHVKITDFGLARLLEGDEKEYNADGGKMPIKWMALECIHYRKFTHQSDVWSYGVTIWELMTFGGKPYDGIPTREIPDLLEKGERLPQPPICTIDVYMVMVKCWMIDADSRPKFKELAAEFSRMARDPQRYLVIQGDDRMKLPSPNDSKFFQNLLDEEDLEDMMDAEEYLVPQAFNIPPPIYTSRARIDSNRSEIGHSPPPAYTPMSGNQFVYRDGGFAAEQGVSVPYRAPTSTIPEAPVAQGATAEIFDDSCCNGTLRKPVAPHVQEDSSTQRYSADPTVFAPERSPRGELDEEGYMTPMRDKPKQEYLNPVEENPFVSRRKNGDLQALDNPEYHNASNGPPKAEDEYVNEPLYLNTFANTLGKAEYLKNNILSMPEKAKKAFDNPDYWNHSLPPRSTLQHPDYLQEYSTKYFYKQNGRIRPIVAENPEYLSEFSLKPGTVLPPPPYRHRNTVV

SMILES = CC(C)[C@H](NC(=O)c1ccccc1NC(=O)c1ccc(O)cc1)C(=O)N[C@H](CO)C(C)C; tested on = MRC5; assay = cell growth or viability, MTT; conditions = 72 h; measurement = CC50; value = > 250 µM
SMILES = COc1ccccc1NC(=O)CSc1nc2cccnc2n1-c1ccccc1OC; tested on = PFF0160c (Plasmodium falciparum, UniProt Q08210); assay = enzyme activity, inhibitor, absorbance; measurement = IC50; value = 7.22 µM
SMILES = C[N+]1=C2C=C(NCCc3ccc(O)cc3)C(=O)c3[nH]cc(c32)CC1; tested on = HeLa; assay = cell growth or viability, MTT; conditions = 72 h; measurement = CC50; value = 0.5 µM
SMILES = [2H]c1c([2H])c([C@]2([2H])CCCN2C(=O)C(C)(C)Oc2ccc3cn[nH]c3c2)c([2H])c([2H])c1C([2H])([2H])[2H]; tested on = ERBB4 (Homo sapiens, UniProt Q15303); assay = binding, competition with immobilised ligand; conditions = 1 µM; measurement = remaining binding; value = 82%
SMILES = COC(=O)C=Cc1ccc(OC)c(OC)c1; tested on = HaCaT; assay = cell growth or viability, MTT; conditions = 24 h; measurement = CC50; value = > 250 µM
SMILES = CC(C)(C)[C@H](NC(=O)C(F)(F)F)C(=O)N1C[C@H]2[C@@H]([C@H]1C(=O)N[C@H](C#N)C[C@@H]1CCNC1=O)C2(C)C; tested on = Vero; assay = cell growth or viability; measurement = CC50; value = > 100 µM
SMILES = CCCCN(C)CC#Cc1ccc2[nH]c(C)c(Cl)c(=O)c2c1; tested on = PFF0160c (Plasmodium falciparum, UniProt Q08210, E182D); assay = enzyme activity, inhibitor, absorbance; measurement = IC50; value = > 10 µM
SMILES = COC(=O)C=Cc1ccc(OC(C)=O)c(OC)c1; tested on = HaCaT; assay = cell growth or viability, MTT; conditions = 24 h; measurement = CC50; value = > 250 µM
SMILES = CCNC(=O)[C@@H](NC(=O)c1ccccc1NC(=O)c1ccc(OC)cc1)C(C)C; tested on = MRC5; assay = cell growth or viability, MTT; conditions = 72 h; measurement = CC50; value = > 250 µM
SMILES = Cn1cc2c3c1C(=O)C(N)=CC3=NCC2; tested on = HeLa; assay = cell growth or viability, MTT; conditions = 72 h; measurement = CC50; value = 2 µM
SMILES = O=c1nc(NO)ccn1[C@@H]1O[C@H](CO)[C@@H](O)[C@H]1O; tested on = Vero; assay = cell growth or viability; measurement = CC50; value = 24.3 µM
